Results gathered from unrelated publications.
Each numbered part is a random draw from the data of one study; scales do not carry over between parts. Several values in a cell are separate wells, animals, samples, runs or records.
Chain of UniProt Q7KZI7 (whole entry, looked up): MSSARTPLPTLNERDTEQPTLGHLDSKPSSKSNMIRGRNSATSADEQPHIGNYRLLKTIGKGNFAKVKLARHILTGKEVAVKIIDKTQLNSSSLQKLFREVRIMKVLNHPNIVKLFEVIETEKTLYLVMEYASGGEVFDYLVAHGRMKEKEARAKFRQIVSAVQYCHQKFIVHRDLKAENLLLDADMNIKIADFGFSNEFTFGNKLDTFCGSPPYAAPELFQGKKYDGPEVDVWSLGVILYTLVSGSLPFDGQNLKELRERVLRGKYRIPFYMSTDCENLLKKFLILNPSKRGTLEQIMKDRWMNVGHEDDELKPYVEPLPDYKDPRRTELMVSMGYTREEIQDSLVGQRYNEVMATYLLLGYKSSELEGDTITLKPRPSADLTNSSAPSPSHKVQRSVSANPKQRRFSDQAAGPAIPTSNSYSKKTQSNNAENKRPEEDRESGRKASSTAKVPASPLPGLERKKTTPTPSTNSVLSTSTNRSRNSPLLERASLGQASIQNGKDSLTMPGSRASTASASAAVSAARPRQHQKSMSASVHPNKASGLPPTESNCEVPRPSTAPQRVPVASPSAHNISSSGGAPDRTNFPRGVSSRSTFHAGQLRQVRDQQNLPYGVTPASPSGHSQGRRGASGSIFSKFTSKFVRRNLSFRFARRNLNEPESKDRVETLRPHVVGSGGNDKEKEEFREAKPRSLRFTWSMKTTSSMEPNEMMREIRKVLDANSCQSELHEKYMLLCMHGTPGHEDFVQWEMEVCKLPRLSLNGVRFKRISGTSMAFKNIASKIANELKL
Chain of UniProt P29597 (whole entry, looked up): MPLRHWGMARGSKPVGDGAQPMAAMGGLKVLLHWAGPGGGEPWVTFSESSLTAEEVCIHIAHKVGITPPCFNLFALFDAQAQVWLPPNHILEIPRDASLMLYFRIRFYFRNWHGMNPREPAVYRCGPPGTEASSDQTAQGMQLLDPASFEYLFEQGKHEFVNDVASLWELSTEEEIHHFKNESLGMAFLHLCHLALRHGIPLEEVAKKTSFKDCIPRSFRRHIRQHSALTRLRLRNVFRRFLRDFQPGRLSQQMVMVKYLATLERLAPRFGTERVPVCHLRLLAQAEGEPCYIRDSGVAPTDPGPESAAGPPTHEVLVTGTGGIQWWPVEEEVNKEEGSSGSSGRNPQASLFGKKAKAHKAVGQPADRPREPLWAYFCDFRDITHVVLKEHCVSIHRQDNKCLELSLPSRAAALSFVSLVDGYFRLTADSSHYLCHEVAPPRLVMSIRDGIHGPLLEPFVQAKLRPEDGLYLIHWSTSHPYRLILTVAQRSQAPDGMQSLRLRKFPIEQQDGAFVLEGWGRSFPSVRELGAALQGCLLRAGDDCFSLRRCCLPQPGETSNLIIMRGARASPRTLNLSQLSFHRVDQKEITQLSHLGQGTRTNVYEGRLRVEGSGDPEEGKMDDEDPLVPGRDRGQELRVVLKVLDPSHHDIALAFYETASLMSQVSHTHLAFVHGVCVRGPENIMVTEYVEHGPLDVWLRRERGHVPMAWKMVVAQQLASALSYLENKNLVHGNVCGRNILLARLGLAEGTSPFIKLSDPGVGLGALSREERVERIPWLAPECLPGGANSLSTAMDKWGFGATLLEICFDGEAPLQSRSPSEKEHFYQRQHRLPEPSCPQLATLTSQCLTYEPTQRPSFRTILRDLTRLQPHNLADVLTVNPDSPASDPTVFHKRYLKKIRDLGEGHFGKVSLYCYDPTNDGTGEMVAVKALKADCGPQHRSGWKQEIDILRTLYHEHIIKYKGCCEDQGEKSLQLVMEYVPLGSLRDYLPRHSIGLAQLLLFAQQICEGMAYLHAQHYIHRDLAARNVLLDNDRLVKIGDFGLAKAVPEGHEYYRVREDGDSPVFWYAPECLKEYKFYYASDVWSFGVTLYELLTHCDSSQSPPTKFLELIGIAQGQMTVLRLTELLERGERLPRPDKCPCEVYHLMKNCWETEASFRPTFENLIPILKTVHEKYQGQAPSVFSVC
Chain of UniProt P00519 (whole entry, unmodified, looked up): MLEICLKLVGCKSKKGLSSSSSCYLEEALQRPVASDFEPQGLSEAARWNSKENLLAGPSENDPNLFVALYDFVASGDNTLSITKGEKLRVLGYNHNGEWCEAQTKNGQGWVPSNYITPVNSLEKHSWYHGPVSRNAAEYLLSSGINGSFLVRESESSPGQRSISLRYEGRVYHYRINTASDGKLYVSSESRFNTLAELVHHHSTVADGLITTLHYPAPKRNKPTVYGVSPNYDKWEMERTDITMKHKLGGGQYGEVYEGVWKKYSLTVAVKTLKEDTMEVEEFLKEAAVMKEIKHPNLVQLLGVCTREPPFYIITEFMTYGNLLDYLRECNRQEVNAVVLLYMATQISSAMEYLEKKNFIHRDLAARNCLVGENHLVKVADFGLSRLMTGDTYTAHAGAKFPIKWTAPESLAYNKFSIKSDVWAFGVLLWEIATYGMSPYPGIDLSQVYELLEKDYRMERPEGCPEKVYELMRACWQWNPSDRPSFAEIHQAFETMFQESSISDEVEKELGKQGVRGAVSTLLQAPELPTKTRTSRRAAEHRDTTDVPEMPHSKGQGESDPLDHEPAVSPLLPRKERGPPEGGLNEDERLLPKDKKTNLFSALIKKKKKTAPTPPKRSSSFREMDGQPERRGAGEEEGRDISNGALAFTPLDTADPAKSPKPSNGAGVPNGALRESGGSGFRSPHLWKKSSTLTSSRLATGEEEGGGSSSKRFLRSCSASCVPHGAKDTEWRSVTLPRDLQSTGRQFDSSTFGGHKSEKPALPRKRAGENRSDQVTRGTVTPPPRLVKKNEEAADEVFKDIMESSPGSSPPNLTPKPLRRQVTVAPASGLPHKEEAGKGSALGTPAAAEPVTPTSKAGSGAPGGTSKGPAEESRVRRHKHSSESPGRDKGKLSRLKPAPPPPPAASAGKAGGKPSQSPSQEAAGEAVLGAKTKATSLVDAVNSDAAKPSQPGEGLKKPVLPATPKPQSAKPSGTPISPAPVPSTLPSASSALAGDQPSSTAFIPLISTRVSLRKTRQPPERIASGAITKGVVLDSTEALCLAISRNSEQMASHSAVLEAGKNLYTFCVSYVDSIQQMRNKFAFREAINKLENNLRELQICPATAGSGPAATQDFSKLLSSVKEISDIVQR
Chain of UniProt Q9BVS4 (whole entry, looked up): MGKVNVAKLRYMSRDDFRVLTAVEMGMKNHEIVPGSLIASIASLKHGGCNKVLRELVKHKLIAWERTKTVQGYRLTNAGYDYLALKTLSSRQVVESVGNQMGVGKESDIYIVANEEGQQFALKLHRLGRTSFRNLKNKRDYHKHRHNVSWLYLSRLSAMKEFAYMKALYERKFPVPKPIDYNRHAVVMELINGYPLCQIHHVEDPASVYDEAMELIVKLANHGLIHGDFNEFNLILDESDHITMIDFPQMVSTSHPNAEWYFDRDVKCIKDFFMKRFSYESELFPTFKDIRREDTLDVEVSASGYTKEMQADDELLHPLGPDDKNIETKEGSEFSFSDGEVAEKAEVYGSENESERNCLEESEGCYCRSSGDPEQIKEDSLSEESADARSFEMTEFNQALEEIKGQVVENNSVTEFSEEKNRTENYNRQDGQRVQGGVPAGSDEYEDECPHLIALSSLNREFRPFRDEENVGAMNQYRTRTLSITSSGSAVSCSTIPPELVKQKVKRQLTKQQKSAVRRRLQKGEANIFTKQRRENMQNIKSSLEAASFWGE
Chain of UniProt P42336 (whole entry, unmodified, looked up): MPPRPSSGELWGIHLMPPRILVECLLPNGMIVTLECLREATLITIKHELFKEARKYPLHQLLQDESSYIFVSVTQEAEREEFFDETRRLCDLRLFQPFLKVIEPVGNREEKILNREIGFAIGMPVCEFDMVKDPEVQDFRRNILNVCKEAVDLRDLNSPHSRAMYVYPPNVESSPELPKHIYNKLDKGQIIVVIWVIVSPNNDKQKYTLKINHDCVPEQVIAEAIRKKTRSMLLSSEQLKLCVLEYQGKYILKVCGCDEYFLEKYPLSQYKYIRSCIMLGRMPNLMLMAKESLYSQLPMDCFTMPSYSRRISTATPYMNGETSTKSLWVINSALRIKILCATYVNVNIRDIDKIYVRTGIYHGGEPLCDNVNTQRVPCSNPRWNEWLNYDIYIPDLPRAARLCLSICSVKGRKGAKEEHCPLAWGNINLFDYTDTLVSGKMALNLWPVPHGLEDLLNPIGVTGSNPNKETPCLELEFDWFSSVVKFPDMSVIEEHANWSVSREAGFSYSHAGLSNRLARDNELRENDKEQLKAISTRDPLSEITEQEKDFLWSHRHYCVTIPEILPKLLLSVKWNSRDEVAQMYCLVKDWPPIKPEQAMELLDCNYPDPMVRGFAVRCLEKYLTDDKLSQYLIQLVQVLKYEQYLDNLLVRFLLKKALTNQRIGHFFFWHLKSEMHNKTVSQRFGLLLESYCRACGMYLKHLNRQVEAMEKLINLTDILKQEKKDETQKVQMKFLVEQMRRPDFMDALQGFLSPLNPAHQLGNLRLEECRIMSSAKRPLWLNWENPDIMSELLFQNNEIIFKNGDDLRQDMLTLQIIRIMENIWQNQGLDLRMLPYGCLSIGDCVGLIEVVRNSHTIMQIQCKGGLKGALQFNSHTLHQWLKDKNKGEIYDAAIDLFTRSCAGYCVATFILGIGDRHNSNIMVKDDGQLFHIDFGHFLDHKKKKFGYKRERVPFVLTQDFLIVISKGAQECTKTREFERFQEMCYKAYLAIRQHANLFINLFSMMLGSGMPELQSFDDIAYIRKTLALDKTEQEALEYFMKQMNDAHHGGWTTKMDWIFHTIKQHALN
Chain of UniProt Q96PN8 (whole entry, looked up): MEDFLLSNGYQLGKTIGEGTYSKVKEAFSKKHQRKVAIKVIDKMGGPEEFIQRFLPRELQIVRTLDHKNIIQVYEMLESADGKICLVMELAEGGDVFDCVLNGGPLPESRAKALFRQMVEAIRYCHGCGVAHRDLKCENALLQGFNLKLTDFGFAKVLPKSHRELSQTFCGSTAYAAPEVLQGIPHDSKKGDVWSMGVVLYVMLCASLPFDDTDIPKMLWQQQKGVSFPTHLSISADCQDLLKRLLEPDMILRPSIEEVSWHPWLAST

Sample 1
Target: 3-phosphoinositide-dependent protein kinase 1 (PDPK1, Homo sapiens, UniProt O15530)
Observed: enzyme activity
Action: inhibitor
Tested at: 0.5 µM
Baseline: control
Construct (O15530 1-556): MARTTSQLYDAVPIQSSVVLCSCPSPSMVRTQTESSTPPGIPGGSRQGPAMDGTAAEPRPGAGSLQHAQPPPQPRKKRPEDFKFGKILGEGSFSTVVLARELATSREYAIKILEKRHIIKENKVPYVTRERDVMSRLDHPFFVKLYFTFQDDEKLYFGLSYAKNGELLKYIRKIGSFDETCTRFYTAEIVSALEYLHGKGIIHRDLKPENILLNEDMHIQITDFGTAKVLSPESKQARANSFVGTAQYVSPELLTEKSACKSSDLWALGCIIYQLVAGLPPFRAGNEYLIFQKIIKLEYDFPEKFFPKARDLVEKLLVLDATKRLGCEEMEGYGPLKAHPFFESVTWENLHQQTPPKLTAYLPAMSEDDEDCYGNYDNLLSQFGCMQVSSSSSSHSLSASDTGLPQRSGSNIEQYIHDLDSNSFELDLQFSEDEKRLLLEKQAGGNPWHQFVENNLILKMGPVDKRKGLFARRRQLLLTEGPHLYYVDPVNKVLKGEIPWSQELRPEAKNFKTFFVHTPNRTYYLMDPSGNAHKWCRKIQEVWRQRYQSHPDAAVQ
| SMILES | remaining activity |
| --- | --- |
| N#Cc1c(NC(=O)c2cccc3ccccc23)sc2c1CCCC2 | 92.1% |
| Cn1nc2c3c(cccc31)C(=O)c1ccccc1-2 | 94.5% |
| CN(C)C[C@H]1CCn2c(c(C3=C(c4cn(C)c5ccccc45)C(=O)NC3=O)c3ccccc32)C1 | 97% |
| O=C1c2ccccc2-c2n[nH]c3cccc1c23 | 99% |
| COc1cc2ncnc(Nc3ccc(O)c(Br)c3)c2cc1OC | 96.6% |
| O=C1C(Cl)=C(N2C(=O)CCC2=O)C(=O)c2ccccc21 | 100% |
| CN([C@@H](Cc1ccc(OS(=O)(=O)c2cccc3cnccc23)cc1)C(=O)N1CCN(c2ccccc2)CC1)S(=O)(=O)c1cccc2cnccc12 | 96.4% |
| COc1cc2ncnc(Nc3cccc(Cl)c3)c2cc1OC | 81.9% |
| CCN(CC)CCNC(=O)c1c(C)[nH]c(/C=C2\C(=O)Nc3ccc(Cl)cc32)c1C | 101% |
| N#C/C(=C\c1ccc(O)c(O)c1)C(=O)NCc1ccccc1 | 74% |
| Cc1nc2cc3nc(-c4cccs4)cnc3cc2n1C | 106% |
| O=C(NC(NC(=S)Nc1ccc(F)c([N+](=O)[O-])c1)C(Cl)(Cl)Cl)C(c1ccccc1)c1ccccc1 (stereo not drawn) | 112% |

Sample 2
Compound: Cc1nccc(COC(=O)N2C[C@@H]3[C@@H](CNC(=O)c4ccc5[nH]nnc5c4)[C@@H]3C2)n1
Method: competition with immobilised ligand
Tested at: 1 µM
| target | test | remaining binding [%] |
| --- | --- | --- |
| TBK1 (Homo sapiens, UniProt Q9UHD2) | cell-free assay | 96 |
| Non-receptor tyrosine-protein kinase TYK2, JH2 (TYK2, Homo sapiens, UniProt P29597) | cell-free assay | 100 |
| PAK3 (Homo sapiens, UniProt O75914) | cell-free assay | 75 |
| TSSK3 (Homo sapiens, UniProt Q96PN8) | cell-free assay | 100 |
| PRKAA2 (Homo sapiens, UniProt P54646) | cell-free assay | 97 |
| Tyrosine-protein kinase ABL1, phosphorylated (ABL1, Homo sapiens, UniProt P00519, E255K) | binding | 89 |
| ULK3 (Homo sapiens, UniProt Q6PHR2) | cell-free assay | 100 |
| CDK16 (Homo sapiens, UniProt Q00536) | cell-free assay | 78 |
| PIK3CA (Homo sapiens, UniProt P42336, C420R) | cell-free assay | 97 |
| PHKG1 (Homo sapiens, UniProt Q16816) | cell-free assay | 100 |
| PAK6 (Homo sapiens, UniProt Q9NQU5) | cell-free assay | 95 |
| MARK2 (Homo sapiens, UniProt Q7KZI7) | cell-free assay | 97 |
| PDPK1 (Homo sapiens, UniProt O15530) | cell-free assay | 100 |
| MAST1 (Homo sapiens, UniProt Q9Y2H9) | cell-free assay | 100 |
| RIOK2 (Homo sapiens, UniProt Q9BVS4) | cell-free assay | 97 |
| Tyrosine-protein kinase JAK1, JH1 (JAK1, Homo sapiens, UniProt P23458) | cell-free assay | 92 |
| PIK3CG (Homo sapiens, UniProt P48736) | cell-free assay | 89 |
| EGFR (Homo sapiens, UniProt P00533) | cell-free assay | 82 |

Sample 3
Species: human
Sample: microsomes or S9
Tested at: 2 µM
Time: 0.5 h
| Structure (SMILES) | remaining compound [%] |
| --- | --- |
| O=C(CC1c2ccccc2Oc2ccccc21)N1CCCC1c1nc(-c2ccncc2)n[nH]1 (stereo not drawn) | 84.7 |
| CCCc1cc(NC(=O)c2ccccc2-n2ccnn2)n[nH]1 | > 100 |
| CCOc1cc(CNCCCN2CCOCC2)cc(Br)c1OCc1ccccc1Cl | 8.34 |
| Clc1cccnc1N1CCCC(Cn2ccnc2)C1 (stereo not drawn) | 84.7 |
| Cc1cnc(-c2nc(NCCc3ccncc3)ncc2-c2onc(C)c2C)cn1 | 68 |
| Cc1nc(O)cc(COCc2ccccc2)c1C#N | 38.2 |
| Cc1ccnc(COc2cc(C)nc3onc(C)c23)n1 | 49.2 |
| CC(C)(C)OC(=O)C1C(=O)CC(C)(O)C(C(=O)OC(C)(C)C)C1c1cccnc1 (stereo not drawn) | 54.6 |

Further values, each from its own experiment
| Compound | cell line | test | system | conditions | quantity | value |
| --- | --- | --- | --- | --- | --- | --- |
| C[C@@H]1CN(c2ccc(-c3cc(C(=O)NCCOCCOCCOCCOCCNC(=O)/C=C/c4[nH]cc(C(=O)N[C@@H](CC(N)=O)c5ccc(F)c(Cl)c5)c4-c4ccc(Cl)cc4F)ccc3F)cc2NC(=O)c2c[nH]c(=O)cc2C(F)(F)F)C[C@H](C)N1C | MV4-11 expressing HiBiT-WDR5 | ATPlite | RPMI with 10% FBS | 227 nM, 24 h | viability | 120% and 119% and 124% |

Excerpt of the above (sample 3):
| Structure (SMILES) | remaining compound [%] |
| --- | --- |
| O=C(CC1c2ccccc2Oc2ccccc21)N1CCCC1c1nc(-c2ccncc2)n[nH]1 (stereo not drawn) | 84.7 |
| Cc1cnc(-c2nc(NCCc3ccncc3)ncc2-c2onc(C)c2C)cn1 | 68 |
| Cc1ccnc(COc2cc(C)nc3onc(C)c23)n1 | 49.2 |
